Measurements collected from several papers.
Lines come from different studies, so protocols differ. ± gives the spread as reported.
CP capsid: CP, capsid (Tobacco mosaic virus, UniProt P69687)
Chain of UniProt P69687 (whole entry, looked up): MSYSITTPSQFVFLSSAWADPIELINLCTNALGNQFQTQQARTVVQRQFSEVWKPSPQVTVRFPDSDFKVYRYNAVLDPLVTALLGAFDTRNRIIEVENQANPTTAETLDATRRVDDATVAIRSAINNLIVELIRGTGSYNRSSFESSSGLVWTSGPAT
Chain of UniProt Q05097 (whole entry, looked up): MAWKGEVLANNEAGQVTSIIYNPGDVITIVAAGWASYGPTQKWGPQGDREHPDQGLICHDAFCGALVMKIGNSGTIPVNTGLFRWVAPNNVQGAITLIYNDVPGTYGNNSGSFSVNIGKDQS
Chain of UniProt Q9NZC7 (whole entry, looked up): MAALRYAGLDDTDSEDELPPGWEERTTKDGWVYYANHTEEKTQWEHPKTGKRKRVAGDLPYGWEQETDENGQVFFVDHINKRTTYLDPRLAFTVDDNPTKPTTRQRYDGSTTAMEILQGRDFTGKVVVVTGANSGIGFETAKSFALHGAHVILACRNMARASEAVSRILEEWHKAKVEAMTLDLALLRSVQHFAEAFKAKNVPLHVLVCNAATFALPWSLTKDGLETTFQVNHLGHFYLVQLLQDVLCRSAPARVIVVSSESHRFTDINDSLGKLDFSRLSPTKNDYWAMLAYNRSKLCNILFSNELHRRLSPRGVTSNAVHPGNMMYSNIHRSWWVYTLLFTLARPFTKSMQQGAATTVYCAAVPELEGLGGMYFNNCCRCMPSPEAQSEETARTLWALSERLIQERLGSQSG
Chain of UniProt Q15109 (whole entry, looked up): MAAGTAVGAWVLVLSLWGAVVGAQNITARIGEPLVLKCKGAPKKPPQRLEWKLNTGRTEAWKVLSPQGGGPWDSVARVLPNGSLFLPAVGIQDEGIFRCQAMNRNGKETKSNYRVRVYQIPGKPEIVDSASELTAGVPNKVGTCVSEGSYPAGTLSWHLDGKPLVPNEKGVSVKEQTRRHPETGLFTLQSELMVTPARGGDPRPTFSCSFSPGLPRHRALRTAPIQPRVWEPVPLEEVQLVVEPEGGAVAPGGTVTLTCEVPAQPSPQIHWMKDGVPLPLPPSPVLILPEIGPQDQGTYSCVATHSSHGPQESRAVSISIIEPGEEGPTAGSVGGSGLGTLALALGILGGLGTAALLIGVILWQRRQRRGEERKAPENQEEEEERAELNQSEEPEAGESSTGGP
Chain of UniProt O49687 (whole entry, looked up): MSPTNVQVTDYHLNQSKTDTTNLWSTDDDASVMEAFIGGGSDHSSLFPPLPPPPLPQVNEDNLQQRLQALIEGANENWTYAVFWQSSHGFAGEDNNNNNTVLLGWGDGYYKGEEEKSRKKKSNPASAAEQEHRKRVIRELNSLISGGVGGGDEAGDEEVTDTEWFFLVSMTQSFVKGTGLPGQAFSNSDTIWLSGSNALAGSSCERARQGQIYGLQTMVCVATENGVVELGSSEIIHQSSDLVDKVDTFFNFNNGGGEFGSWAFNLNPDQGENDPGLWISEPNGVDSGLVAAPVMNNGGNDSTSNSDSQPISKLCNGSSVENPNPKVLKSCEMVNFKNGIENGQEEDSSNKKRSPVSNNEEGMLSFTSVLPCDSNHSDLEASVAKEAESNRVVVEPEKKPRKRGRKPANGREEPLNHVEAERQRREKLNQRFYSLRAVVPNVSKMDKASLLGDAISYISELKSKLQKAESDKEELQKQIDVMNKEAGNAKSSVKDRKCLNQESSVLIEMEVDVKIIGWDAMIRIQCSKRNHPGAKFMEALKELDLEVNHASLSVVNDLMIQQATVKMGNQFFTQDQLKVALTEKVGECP
Chain of UniProt P21564 (whole entry, unmodified, looked up): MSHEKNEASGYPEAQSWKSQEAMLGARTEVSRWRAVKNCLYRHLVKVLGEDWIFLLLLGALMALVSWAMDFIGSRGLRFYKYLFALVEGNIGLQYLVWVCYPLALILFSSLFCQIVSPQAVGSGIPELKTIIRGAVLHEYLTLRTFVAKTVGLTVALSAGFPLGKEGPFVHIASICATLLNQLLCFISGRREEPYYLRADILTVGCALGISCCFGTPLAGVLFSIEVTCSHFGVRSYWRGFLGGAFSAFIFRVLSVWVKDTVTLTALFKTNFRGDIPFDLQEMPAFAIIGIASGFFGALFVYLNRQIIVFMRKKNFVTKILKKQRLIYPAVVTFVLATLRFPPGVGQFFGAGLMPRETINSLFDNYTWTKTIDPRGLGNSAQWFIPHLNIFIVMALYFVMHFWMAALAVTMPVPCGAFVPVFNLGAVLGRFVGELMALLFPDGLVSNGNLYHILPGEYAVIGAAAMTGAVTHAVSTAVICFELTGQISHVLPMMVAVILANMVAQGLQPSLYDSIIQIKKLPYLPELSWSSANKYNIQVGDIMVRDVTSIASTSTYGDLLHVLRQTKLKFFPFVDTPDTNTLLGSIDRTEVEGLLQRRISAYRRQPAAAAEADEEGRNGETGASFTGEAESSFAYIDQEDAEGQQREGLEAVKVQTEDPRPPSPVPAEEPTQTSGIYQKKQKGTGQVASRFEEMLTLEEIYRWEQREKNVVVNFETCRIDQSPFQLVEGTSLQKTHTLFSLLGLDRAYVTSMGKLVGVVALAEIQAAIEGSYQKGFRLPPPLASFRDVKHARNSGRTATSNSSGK
Chain of UniProt O66465 (whole entry, unmodified, looked up): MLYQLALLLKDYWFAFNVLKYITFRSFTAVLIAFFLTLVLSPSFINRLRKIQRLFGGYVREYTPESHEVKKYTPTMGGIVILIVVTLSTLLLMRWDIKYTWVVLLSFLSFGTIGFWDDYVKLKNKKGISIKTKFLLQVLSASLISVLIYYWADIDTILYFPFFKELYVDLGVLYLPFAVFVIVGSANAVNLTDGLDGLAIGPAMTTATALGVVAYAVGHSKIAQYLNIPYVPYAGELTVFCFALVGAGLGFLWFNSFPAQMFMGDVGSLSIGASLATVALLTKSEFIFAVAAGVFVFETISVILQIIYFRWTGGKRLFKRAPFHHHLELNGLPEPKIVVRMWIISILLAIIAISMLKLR
Chain of UniProt P63104 (whole entry, looked up): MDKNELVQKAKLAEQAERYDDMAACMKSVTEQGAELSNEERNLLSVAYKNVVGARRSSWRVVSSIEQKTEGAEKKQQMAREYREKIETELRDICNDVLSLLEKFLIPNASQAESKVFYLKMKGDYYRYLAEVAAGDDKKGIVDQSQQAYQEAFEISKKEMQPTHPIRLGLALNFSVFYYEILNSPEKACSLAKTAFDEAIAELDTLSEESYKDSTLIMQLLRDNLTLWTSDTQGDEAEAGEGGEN
Chain of UniProt P22455 (whole entry, looked up): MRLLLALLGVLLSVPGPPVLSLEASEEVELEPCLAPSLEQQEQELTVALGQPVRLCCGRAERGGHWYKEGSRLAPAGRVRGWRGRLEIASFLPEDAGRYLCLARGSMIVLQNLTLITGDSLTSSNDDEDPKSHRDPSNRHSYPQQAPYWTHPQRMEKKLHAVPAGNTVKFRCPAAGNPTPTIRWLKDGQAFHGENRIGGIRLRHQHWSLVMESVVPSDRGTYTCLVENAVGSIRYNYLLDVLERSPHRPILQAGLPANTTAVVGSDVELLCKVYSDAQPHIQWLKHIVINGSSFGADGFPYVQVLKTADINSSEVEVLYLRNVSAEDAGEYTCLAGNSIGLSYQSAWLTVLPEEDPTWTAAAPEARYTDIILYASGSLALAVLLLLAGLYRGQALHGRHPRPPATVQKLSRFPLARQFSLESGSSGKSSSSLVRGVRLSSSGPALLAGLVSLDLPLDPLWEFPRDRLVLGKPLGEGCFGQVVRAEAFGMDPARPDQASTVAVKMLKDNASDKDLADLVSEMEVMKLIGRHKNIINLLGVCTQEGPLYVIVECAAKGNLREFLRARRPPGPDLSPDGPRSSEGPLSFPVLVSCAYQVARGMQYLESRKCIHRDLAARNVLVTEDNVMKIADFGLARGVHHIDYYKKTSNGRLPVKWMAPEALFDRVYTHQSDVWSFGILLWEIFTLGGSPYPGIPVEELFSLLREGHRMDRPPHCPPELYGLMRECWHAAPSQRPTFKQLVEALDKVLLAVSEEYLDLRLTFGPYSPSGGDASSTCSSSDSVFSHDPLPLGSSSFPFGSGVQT
Chain of UniProt Q9UEF7 (whole entry, looked up): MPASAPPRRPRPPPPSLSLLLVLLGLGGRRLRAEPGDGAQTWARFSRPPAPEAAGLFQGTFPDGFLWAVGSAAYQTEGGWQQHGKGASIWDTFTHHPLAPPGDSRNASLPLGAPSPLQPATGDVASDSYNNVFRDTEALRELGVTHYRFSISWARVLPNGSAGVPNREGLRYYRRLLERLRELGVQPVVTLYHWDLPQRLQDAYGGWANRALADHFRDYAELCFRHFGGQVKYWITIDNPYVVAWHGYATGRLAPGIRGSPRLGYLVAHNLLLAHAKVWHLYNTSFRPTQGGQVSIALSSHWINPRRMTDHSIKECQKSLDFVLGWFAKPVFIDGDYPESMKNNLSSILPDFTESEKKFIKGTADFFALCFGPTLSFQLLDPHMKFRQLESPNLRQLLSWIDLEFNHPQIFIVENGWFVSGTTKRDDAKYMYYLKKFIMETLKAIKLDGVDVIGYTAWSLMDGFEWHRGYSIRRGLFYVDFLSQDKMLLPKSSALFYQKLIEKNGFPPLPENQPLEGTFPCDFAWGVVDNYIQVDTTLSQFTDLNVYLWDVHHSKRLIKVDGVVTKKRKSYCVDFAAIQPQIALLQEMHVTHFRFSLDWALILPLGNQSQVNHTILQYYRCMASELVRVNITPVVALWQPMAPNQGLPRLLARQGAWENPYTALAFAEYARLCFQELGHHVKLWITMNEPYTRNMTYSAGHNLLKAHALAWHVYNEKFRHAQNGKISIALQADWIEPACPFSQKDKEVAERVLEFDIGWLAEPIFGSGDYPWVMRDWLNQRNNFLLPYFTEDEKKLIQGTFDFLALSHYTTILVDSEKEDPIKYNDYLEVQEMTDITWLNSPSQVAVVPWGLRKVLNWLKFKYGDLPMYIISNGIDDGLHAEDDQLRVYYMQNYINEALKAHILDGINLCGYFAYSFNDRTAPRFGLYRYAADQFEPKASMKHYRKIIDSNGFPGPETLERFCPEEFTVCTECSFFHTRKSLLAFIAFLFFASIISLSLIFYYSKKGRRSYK

Compound | target | test | test system | setting | Kd [µM]
CC(C)C[C@H](NC(=O)[C@@H](NC(=O)[C@@H](NC(=O)CN)[C@@H](C)O)C(C)C)C(=O)N1CCC[C@H]1C(=O)N[C@@H](C)C(=O)N[C@@H](C)C(=O)N1CCC[C@H]1C(=O)N[C@@H](Cc1ccc(O)cc1)C(=O)N[C@@H](CCCNC(=N)N)C(=O)N[C@@H](Cc1c[nH]cn1)C(=O)N[C@@H](CCCNC(=N)N)C(=O)N[C@@H](CC(N)=O)C(=O)NCC(=O)NCC(=O)NCC(=O)NCC(=O)NCC(=O)N[C@H](C(=O)N[C@H](C(=O)N[C@@H](CC(C)C)C(=O)N1CCC[C@H]1C(=O)N1CCC[C@H]1C(=O)N1CCC[C@H]1C(=O)N1CCC[C@H]1C(=O)N[C@@H](Cc1ccc(O)cc1)C(=O)N[C@@H](CCCNC(=N)N)C(=O)N[C@@H](Cc1c[nH]cn1)C(=O)N[C@@H](CCCNC(=N)N)C(=O)N[C@@H](CC(N)=O)C(=O)O)C(C)C)[C@@H](C)O | WW domain-containing oxidoreductase, WW1-WW2 tandem domains (WWOX, Homo sapiens, UniProt Q9NZC7) | ITC | tandem WW1-WW2 domain | pH 7.8, 20 °C, some values lower limits only | 18 ± 3.3
O=C(/C=C/c1ccccc1Br)c1ccc(OS(=O)(=O)c2cccs2)cc1 | CP capsid | binding, MST |  |  | 0.301
CC[C@H](C)[C@@H]1NC(=O)[C@@H]2CCCN2C(=O)[C@@H](NC(=O)[C@H](C)NC(=O)[C@H](CCSC)NC(C)=O)CSCc2cc3cc(c2)CSC[C@@H](C(=O)N[C@@H](Cc2ccc(O)cc2)C(=O)NCC(=O)N[C@@H](CO)C(=O)NCC(=O)N[C@@H](CO)C(=O)NCC(=O)N[C@@H](CO)C(=O)N[C@@H](CC(=O)O)C(=O)N[C@@H](Cc2ccc(O)cc2)C(=O)N[C@@H](CCCCN)C(=O)N[C@@H](CC(=O)O)C(=O)N[C@@H](CC(=O)O)C(=O)N[C@@H](CC(=O)O)C(=O)N[C@@H](CC(=O)O)C(=O)N[C@@H](CCCCN)C(N)=O)NC(=O)[C@H](Cc2ccc(O)cc2)NC(=O)[C@H](CCCNC(=N)N)NC(=O)[C@H](CC(C)C)NC(=O)[C@H]([C@@H](C)O)NC(=O)[C@H](CC(N)=O)NC(=O)[C@H]([C@@H](C)O)NC(=O)[C@H](CSC3)NC(=O)CNC1=O | FGFR4 (Homo sapiens, UniProt P22455) | binding, BLI |  |  | > 10
CSCC[C@@H]1NC(=O)[C@@H](N)CSSC[C@@H](C(=O)O)NC(=O)[C@H]([C@@H](C)O)NC(=O)[C@H]([C@@H](C)O)NC(=O)[C@@H]2CCCN2C(=O)[C@H](CC(N)=O)NC(=O)[C@@H]2CCCN2C(=O)[C@H]([C@@H](C)O)NC1=O | Small ubiquitin-related modifier 1 (Homo sapiens, UniProt P63165) | binding, ITC |  |  | 1.8
CC[C@H](C)[C@H](NC(=O)[C@H](CO)NC(=O)[C@H](CCCNC(=N)N)NC(=O)[C@@H]1CCCN1C(=O)[C@H](Cc1c[nH]c2ccccc12)NC(=O)[C@H](CCCNC(=N)N)NC(=O)[C@H](CCCNC(=N)N)NC(C)=O)C(=O)N[C@@H](CC(C)C)C(=O)N[C@@H](CC(=O)O)C(=O)N[C@@H](CCC(=O)O)C(=O)N[C@@H](Cc1c[nH]cn1)C(=O)N[C@H](C(=O)N[C@@H](CCCNC(=N)N)C(=O)N[C@@H](CCCNC(=N)N)C(=O)N[C@H](C(=O)N[C@@H](Cc1c[nH]c2ccccc12)C(=O)N[C@@H](CCCNC(=N)N)C(=O)NCCCCCC(=O)N[C@@H](C)C(=O)N[C@@H](CC(C)C)C(=O)N[C@@H](C)C(=O)N1CCC[C@H]1C(=O)N[C@@H](Cc1ccc(O)cc1)C(=O)N[C@H](C(=O)N1CCC[C@H]1C(=O)N[C@@H](Cc1ccc(O)cc1)C(=O)NCC(=O)N[C@@H](CCCNC(=N)N)C(=O)N[C@@H](CCCCN)C(=O)N[C@@H](CCCCN)C(=O)N[C@@H](CCCNC(=N)N)C(=O)N[C@@H](CCCNC(=N)N)C(=O)N[C@@H](CCC(N)=O)C(=O)N[C@@H](CCCNC(=N)N)C(=O)N[C@@H](CCCNC(=N)N)C(=O)N[C@@H](CCCNC(=N)N)C(N)=O)[C@@H](C)CC)C(C)C)C(C)C | Catenin beta-1 (CTNNB1, Homo sapiens, UniProt P35222) | binding, MST |  |  | 7.27
CC[C@H](C)[C@H](NC(=O)[C@H](CCCCN)NC(=O)[C@H](Cc1ccccc1)NC(=O)[C@H](CCCCNC(=O)[C@H](CC(C)C)NC(=O)[C@@H]1CCCN1C(=O)[C@H](CCCCN)NC(=O)c1ccc(O[C@@H]2O[C@H](CO)[C@H](O)[C@H](O)[C@H]2O)cc1)NC(=O)[C@H](CC(C)C)NC(=O)[C@@H]1CCCN1C(=O)[C@H](CCCCN)NC(=O)c1ccc(O[C@@H]2O[C@H](CO)[C@H](O)[C@H](O)[C@H]2O)cc1)C(N)=O | lecA (Pseudomonas aeruginosa, UniProt Q05097) | binding, ITC |  | pH 7.5 | 0.083
CC(C)P(=S)(NP(=[Se])(C(C)C)C(C)C)C(C)C | Alpha-amylase (Bacillus subtilis, UniProt P00691) | fluorescence quenching |  | 304 K | 1130
O=c1c(Br)c2oc3c(CN(Cc4ccccn4)Cc4ccccn4)c(O)ccc3nc-2c2ccccc12 | zinc ion | fluorescence titration |  | pH 7.0, 25 °C | < 1e-06
CC(C)C[C@H](NC(=O)[C@H](CCCNC(=N)N)NC(=O)[C@H](CCC(=O)O)NC(=O)[C@H](CCCCN)NC(=O)[C@H](CCCNC(=N)N)NC(=O)[C@H](CCCCN)NC(=O)[C@]1(C)CCCC=CCCC[C@](C)(NC(=O)[C@H](CC(C)C)NC(=O)[C@H](CO)NC(=O)[C@]2(C)CCCC=CCCC[C@](C)(NC(=O)[C@@H]3CCCN3C(=O)[C@@H](NC(=O)[C@H](CO)NC(=O)c3ccc4c(c3)C(=O)OC43c4ccc(N(C)C)cc4Oc4cc(N(C)C)ccc43)C(C)C)C(=O)N[C@@H](C)C(=O)N[C@@H](CCCNC(=N)N)C(=O)N[C@@H](CCCCN)C(=O)N2)C(=O)N[C@@H](CCCNC(=N)N)C(=O)N[C@@H](Cc2ccccc2)C(=O)N[C@@H](CC(C)C)C(=O)N1)C(=O)O | Transcription factor MYC4 (MYC4, Arabidopsis thaliana, UniProt O49687) | binding, fluorescence anisotropy |  | pH 8.0, MYC4 residues 55-253 | 0.88 ± 0.2
CC(C)CC(NC(=O)C(NC(=O)NC(C(=O)O)C(C)C)C1CCNC(=N)N1)C(=O)NCCCNC(C(=O)O)C(OC1OC(CN)C(O)C1O)C1OC(n2ccc(=O)[nH]c2=O)C(O)C1O (stereo not drawn) | mraY (Aquifex aeolicus, UniProt O66465, F262A) | binding, ITC |  |  | 0.228
O=C(O)COc1ccc(Cl)cc1 | Chloride channel protein (Torpedo marmorata, UniProt P21564, C212S) | ion current, blocker, inside-out patch clamp |  | intracellular, extrapolated to 0 mV, added: 100 mM extracellular Cl− | 45000
CSCC[C@@H]1NC(=O)[C@H](CO)NC(=O)[C@@H](NC(=O)[C@H](CCC(N)=O)NC(=O)[C@H](CCCNC(=N)N)NC(C)=O)CSC/C=C/CSC[C@@H](C(=O)N[C@@H](Cc2ccccc2)C(=O)N[C@@H](Cc2ccc(O)cc2)C(=O)N[C@@H](Cc2c[nH]cn2)C(=O)N[C@@H](CO)C(=O)N[C@@H](CCCCN)C(N)=O)NC(=O)[C@H]([C@@H](C)O)NC1=O | PCNA (Homo sapiens, UniProt P12004) | binding, SPR |  |  | 2.82
CC(C)C[C@H](NC(=O)[C@H](CC(=O)O)NC(=O)[C@H](CCCCNCC(=O)O)NC(=O)[C@@H](N)Cc1ccccc1)C(=O)NCC(=O)N[C@@H](CCC(=O)O)C(=O)N[C@@H](CCC(=O)O)C(=O)O | AGER (Homo sapiens, UniProt Q15109) | binding, fluorescence |  |  | 87
CC[C@H](C)[C@H](NC(=O)[C@@H](NC(=O)[C@H](C)NC(=O)[C@@H](NC(=O)[C@H](Cc1c[nH]c2ccccc12)NC(=O)[C@H](CCC(=O)O)NC(=O)[C@H](CO)NC(=S)Nc1ccc2c(c1)C(=O)OC21c2ccc(O)cc2Oc2cc(O)ccc21)C(C)C)C(C)C)C(=O)N1CCC[C@H]1C(=O)N[C@@H](Cc1ccccc1)C(=O)N[C@@H](CC(C)C)C(=O)N[C@H](C(=O)N[C@@H](CC(N)=O)C(=O)N[C@@H](CC(C)C)C(=O)O)[C@@H](C)O | Rgg transcriptional regulator (Streptococcus pneumoniae, UniProt A0A0E7KI02) | binder, fluorescence polarization |  | 20 min, pH 7.4, 20 °C, fluorescein-labelled peptide | > 100
CC(C)C[C@H](NC(=O)[C@@H]1CCCN1C(=O)[C@H](CC(=O)O)NC(=O)[C@H](CO)NC(=O)[C@H](C)NC(=O)c1cc(-c2ccccc2)nc2ccccc12)C(=O)NCC(=O)N[C@H](C(=O)N[C@H](C(=O)N[C@@H](CCCNC(=N)N)C(=O)NCC(=O)N[C@@H](CCCNC(=N)N)C(=O)N[C@@H](C)C(=O)N[C@@H](CCCNC(=N)N)C(=O)N[C@H](CCCNC(=O)CCOCCOCCOCCOCCNC(=O)CCCC[C@@H]1SC[C@@H]2NC(=O)N[C@@H]21)C(N)=O)C(C)C)C(C)C | Klotho (Homo sapiens, UniProt Q9UEF7) | binding, biolayer interferometry |  |  | 0.0015 ± 0.0006
CC(C)C[C@H](NC(=O)[C@H](Cc1c[nH]cn1)NC(=O)[C@H](CCC(=O)O)NC(=O)[C@H](Cc1c[nH]c2ccccc12)NC(=O)[C@@H](NC(=O)[C@H](Cc1ccc(O)cc1)NC(=O)[C@@H](NC(=O)[C@H](C)NC(=O)[C@H](CC(=O)O)NC(=O)CCNC(=O)CCNC(=O)CCCC[C@@H]1SC[C@@H]2NC(=O)N[C@@H]21)[C@@H](C)O)[C@@H](C)O)C(=O)N[C@@H](C)C(=O)N[C@@H](Cc1c[nH]c2ccccc12)C(=O)N1CCC[C@H]1C(N)=O | Gamma-aminobutyric acid receptor-associated protein (Homo sapiens, UniProt O95166) | binding, BLI |  |  | 0.39
CC[C@H](C)[C@H](NC(=O)[C@@H](N)CCCCN)C(=O)N1CCC[C@H]1C(=O)N[C@@H](Cc1ccc(O)cc1)C(=O)N[C@@H](Cc1ccccc1)C(=O)N[C@@H](Cc1c[nH]cn1)C(=O)N[C@@H](C)C(=O)NCC(=O)NCC(=O)N[C@@H](CO)C(=O)N[C@@H](CCCCN)C(=O)N[C@@H](CS)C(=O)N[C@@H](CO)C(=O)N[C@H](C(=O)N[C@@H](Cc1ccc(O)cc1)C(=O)N1CCC[C@H]1C(=O)N[C@@H](CC(C)C)C(=O)N1CCC[C@H]1C(=O)N[C@@H](CCC(N)=O)C(=O)N1CCC[C@H]1C(=O)N[C@@H](CO)C(=O)O)[C@@H](C)OP(=O)(O)O | YWHAZ (Homo sapiens, UniProt P63104) | binding, isothermal titration calorimetry |  | 37 °C, second site, two-site model, added: phosphorylated PRLR peptide | 2.3 ± 0.2
COc1cc(OC)c2c(=O)c(OCCCCn3cnc4cc(F)ccc4c3=O)c(-c3cc(OC)c(OC)c(OC)c3)oc2c1 | CP capsid | binding, MST |  |  | 0.012

For quick reference, copied from above:
Compound | target | test | test system | setting | Kd [µM]
CC[C@H](C)[C@H](NC(=O)[C@@H](N)CCCCN)C(=O)N1CCC[C@H]1C(=O)N[C@@H](Cc1ccc(O)cc1)C(=O)N[C@@H](Cc1ccccc1)C(=O)N[C@@H](Cc1c[nH]cn1)C(=O)N[C@@H](C)C(=O)NCC(=O)NCC(=O)N[C@@H](CO)C(=O)N[C@@H](CCCCN)C(=O)N[C@@H](CS)C(=O)N[C@@H](CO)C(=O)N[C@H](C(=O)N[C@@H](Cc1ccc(O)cc1)C(=O)N1CCC[C@H]1C(=O)N[C@@H](CC(C)C)C(=O)N1CCC[C@H]1C(=O)N[C@@H](CCC(N)=O)C(=O)N1CCC[C@H]1C(=O)N[C@@H](CO)C(=O)O)[C@@H](C)OP(=O)(O)O | YWHAZ (Homo sapiens, UniProt P63104) | binding, isothermal titration calorimetry |  | 37 °C, second site, two-site model, added: phosphorylated PRLR peptide | 2.3 ± 0.2
COc1cc(OC)c2c(=O)c(OCCCCn3cnc4cc(F)ccc4c3=O)c(-c3cc(OC)c(OC)c(OC)c3)oc2c1 | CP capsid | binding, MST |  |  | 0.012
